Measurements of several laboratories.
Protocols differ between the studies behind these lines. pIC50: −log10 of the molar value.
TMPRSS2: Transmembrane protease serine 2 (TMPRSS2, Homo sapiens, UniProt O15393)
Sequence of UniProt O15393 (whole entry, looked up): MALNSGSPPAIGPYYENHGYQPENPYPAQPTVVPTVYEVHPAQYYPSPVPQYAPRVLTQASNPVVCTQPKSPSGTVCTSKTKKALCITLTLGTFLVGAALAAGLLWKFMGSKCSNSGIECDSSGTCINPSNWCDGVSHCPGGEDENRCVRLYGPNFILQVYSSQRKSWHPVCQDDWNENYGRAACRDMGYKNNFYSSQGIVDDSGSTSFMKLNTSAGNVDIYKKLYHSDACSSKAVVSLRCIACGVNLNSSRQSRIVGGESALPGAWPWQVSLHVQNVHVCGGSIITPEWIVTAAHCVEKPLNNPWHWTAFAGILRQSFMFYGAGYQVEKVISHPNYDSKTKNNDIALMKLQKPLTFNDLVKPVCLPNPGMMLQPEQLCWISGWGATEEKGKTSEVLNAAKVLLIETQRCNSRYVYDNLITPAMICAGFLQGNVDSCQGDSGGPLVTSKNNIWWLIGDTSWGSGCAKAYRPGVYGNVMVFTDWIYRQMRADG
CTSL: Procathepsin L (CTSL, Homo sapiens, UniProt P07711)
Sequence of UniProt P07711 (whole entry, looked up): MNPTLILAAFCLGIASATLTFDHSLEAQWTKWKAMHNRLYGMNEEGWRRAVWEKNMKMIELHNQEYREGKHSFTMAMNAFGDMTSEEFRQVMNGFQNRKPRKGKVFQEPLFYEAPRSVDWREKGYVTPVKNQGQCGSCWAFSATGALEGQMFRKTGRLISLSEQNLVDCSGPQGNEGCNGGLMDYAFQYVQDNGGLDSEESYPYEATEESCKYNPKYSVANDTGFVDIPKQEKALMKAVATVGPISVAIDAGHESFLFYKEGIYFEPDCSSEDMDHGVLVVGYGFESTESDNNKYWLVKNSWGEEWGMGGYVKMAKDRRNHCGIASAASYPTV
PFF0160c E182D: Dihydroorotate dehydrogenase (quinone), mitochondrial (PFF0160c, Plasmodium falciparum, UniProt Q08210, E182D)
Sequence of UniProt Q9UL54 (whole entry, looked up): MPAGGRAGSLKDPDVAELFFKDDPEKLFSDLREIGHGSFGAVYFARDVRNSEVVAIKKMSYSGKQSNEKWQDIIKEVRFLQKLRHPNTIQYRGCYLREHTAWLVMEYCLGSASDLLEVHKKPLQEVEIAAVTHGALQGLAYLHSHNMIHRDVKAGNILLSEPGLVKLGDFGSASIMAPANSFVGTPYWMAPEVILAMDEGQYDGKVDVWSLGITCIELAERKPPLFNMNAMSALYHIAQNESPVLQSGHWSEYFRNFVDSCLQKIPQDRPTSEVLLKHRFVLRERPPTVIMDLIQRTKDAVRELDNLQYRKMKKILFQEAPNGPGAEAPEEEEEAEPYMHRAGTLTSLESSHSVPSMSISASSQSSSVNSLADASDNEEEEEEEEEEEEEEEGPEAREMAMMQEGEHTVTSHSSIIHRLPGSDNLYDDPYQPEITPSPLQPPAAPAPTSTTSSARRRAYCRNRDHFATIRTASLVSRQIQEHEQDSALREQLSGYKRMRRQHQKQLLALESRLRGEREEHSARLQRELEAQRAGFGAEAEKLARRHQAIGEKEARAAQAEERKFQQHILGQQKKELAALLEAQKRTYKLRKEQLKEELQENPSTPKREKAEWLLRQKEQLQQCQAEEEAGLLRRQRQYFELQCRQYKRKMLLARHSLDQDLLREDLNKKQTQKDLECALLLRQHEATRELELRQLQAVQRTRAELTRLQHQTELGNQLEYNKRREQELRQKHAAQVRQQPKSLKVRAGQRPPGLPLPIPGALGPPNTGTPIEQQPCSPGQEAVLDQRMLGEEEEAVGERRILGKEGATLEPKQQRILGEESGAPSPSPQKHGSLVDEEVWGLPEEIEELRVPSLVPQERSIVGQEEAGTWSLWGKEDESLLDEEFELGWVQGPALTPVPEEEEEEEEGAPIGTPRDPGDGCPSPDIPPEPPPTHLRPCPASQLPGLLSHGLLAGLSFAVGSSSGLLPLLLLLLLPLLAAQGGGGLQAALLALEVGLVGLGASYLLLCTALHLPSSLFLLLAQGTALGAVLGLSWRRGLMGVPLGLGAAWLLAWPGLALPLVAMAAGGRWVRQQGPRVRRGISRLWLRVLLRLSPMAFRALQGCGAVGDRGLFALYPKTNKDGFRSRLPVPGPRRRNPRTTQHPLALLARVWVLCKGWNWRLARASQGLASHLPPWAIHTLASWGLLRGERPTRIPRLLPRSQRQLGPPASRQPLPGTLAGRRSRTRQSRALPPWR
Sequence of UniProt P14416 (whole entry, looked up): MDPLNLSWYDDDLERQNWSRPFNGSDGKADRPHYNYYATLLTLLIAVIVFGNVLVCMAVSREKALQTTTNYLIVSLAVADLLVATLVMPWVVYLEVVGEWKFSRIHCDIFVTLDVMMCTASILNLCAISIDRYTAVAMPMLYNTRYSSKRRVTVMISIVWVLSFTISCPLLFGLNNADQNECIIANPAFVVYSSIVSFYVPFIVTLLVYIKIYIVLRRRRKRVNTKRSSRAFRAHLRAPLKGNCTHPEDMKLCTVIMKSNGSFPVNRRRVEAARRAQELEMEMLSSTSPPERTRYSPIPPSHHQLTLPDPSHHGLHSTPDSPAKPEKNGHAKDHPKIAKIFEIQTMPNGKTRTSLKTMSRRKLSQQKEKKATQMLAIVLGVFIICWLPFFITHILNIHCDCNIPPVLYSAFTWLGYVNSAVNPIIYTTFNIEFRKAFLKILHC
Sequence of UniProt Q86YV6 (whole entry, looked up): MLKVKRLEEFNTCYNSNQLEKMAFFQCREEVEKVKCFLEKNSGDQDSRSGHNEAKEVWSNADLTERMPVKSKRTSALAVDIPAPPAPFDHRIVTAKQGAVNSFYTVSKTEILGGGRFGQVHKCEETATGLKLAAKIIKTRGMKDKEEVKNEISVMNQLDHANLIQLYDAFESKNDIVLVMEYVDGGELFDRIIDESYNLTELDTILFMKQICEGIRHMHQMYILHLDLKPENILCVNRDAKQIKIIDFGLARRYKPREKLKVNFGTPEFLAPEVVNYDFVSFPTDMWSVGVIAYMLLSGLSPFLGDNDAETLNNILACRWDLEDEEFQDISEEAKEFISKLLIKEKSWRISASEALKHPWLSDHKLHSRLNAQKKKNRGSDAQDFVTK
Sequence of UniProt P60651 (whole entry, looked up): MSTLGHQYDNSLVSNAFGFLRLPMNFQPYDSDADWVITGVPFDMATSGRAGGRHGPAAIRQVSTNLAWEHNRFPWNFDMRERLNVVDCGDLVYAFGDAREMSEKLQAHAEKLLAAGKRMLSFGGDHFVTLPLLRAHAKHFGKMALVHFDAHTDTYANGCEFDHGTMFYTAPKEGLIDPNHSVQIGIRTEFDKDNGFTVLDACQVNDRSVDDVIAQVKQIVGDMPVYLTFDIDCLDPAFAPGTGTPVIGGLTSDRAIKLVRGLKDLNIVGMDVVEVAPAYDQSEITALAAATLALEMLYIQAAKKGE
Sequence of UniProt P22303 (whole entry, looked up): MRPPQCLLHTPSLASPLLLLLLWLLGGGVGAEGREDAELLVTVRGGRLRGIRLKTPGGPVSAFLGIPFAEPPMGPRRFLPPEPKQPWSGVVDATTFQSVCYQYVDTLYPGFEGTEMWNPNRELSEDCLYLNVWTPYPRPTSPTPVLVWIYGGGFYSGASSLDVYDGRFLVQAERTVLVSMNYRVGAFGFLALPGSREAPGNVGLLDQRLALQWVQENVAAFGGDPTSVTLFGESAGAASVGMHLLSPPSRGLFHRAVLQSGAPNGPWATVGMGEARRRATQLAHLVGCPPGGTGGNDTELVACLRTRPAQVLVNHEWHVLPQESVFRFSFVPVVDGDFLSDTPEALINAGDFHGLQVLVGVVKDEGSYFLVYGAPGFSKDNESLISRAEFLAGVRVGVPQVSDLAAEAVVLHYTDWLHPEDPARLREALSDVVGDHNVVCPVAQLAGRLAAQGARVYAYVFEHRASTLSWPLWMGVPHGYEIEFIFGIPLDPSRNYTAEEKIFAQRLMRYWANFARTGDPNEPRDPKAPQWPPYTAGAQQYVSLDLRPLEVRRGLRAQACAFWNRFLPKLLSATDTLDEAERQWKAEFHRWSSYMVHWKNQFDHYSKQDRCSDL
Sequence of UniProt Q15418 (whole entry, looked up): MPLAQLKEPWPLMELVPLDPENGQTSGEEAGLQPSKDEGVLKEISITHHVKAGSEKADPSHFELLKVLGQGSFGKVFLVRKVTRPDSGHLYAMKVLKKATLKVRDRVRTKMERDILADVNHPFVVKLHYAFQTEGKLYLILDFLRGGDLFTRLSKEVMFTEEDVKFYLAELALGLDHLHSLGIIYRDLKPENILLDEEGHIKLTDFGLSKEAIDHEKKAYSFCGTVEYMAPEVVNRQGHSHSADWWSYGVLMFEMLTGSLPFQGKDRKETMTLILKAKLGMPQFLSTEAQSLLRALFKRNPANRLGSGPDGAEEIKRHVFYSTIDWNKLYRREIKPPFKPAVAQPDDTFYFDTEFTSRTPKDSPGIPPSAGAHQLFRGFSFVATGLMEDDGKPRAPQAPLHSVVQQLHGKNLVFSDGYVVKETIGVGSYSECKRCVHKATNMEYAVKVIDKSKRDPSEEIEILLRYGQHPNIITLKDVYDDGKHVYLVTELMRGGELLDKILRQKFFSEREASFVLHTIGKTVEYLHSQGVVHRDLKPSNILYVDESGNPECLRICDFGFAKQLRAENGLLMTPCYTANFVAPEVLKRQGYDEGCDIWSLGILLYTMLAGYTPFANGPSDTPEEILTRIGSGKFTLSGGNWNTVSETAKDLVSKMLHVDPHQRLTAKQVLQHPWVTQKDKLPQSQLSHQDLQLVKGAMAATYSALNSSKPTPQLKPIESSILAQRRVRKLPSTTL
Sequence of UniProt P08908 (whole entry, looked up): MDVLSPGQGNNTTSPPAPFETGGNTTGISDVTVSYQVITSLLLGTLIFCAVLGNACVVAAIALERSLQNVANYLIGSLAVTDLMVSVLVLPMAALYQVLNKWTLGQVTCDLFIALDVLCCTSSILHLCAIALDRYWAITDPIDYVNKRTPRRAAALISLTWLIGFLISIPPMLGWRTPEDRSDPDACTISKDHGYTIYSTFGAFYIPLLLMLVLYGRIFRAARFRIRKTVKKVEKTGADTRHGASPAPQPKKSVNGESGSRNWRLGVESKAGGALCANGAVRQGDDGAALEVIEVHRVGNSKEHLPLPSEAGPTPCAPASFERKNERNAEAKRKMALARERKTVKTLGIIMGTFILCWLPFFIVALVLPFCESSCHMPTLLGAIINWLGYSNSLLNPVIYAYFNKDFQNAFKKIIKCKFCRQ

SMILES	target or system	assay	system	conditions	measurement	result
N=C(N)NCCCCC(=O)N[C@@H](CCC(N)=O)C(=O)N[C@@H](Cc1cscn1)C(=O)N[C@@H](CCCNC(=N)N)C(=O)c1nc2ccccc2s1	TMPRSS2	enzyme activity, inhibitor	–	1 nM	activity vs control	72%
Nc1ncc(-c2nc(N3CCOCC3)nc(N3CCOCC3)n2)c(C(F)F)n1	TAOK2 (Homo sapiens, UniProt Q9UL54)	binding, competition with immobilised ligand	–	10 µM	remaining binding	92%
N=C(N)NCCCCN	speB (Escherichia coli, UniProt P60651)	enzyme activity, substrate, absorbance	–	pH 7.5	Km	718 µM
N=C(N)NCCCCC(=O)N[C@@H](CCC(N)=O)C(=O)N[C@@H](Cc1ccccc1)C(=O)N[C@@H](CCCNC(=N)N)C(=O)c1nc2ccccc2s1	TMPRSS2	enzyme activity, inhibitor	–	1 nM	activity vs control	32%
Oc1cc(O)cc(/C=C/c2ccc(O)cc2O)c1	CTSL	enzyme activity, inhibitor	–	100 µM	remaining activity	46.1%
CC(C)C[C@H](NC(=O)[C@H](Cc1ccccc1)NC(=O)[C@H](Cc1ccccc1)NC(=O)Cc1ccc(-c2ccccc2)cc1)C(=O)N[C@@H](CCCCN)C(=O)N[C@@H](CCCNC(=N)N)C(=O)N[C@H](C(=O)N[C@@H](Cc1c[nH]c2ccccc12)C(=O)N[C@@H](CCCCN)C(=O)N[C@@H](CCCNC(=N)N)C(=O)O)C(C)C	–	metabolic stability	dog, liver microsomes	45 min	compound remaining	46.7%
CC(=O)N[C@@H](CCC(N)=O)C(=O)N[C@@H](Cc1ccccc1)C(=O)N[C@H](CCNC(=N)N)CC(=O)c1nc2ccccc2s1	TMPRSS2	enzyme activity, inhibitor	–	1 nM	activity vs control	101%
CC[C@H](C)CCCCC(=O)N[C@@H](CCN)C(=O)N[C@H](C(=O)N[C@@H](CCN)C(=O)N[C@H]1CCNC(=O)[C@H]([C@@H](C)O)NC(=O)[C@H](CCN)NC(=O)[C@H](CCN)NC(=O)[C@H](CC(C)C)NC(=O)[C@@H](CC(C)C)NC(=O)[C@H](CCN)NC1=O)[C@@H](C)O	–	–	male Sprague-Dawley rat, plasma	intravenous, 5 mg/kg	AUC(0-inf)	12500 ng·h/mL
CCCC(CCC)C(=O)N[C@@H](CCC(N)=O)C(=O)N[C@@H](Cc1ccccc1)C(=O)N[C@@H](CCCNC(=N)N)C(=O)c1nc2ccccc2s1	TMPRSS2	enzyme activity, inhibitor	–	1 nM	activity vs control	63%
CN1C(=O)/C(=N\Nc2ncc(-c3cc4ccccc4oc3=O)s2)c2cc(Cl)ccc21	ACHE (Homo sapiens, UniProt P22303)	enzyme activity, inhibitor, Ellman	–	0.5 µM	inhibition	78%
Cc1cccc(C(=O)N2CCN(Cc3cccc(NC(=O)c4ccco4)c3)CC2)c1	PFF0160c E182D	enzyme activity, inhibitor, absorbance	–	–	pIC50	< 5.00
CC(=O)N[C@@H](CCC(N)=O)C(=O)N[C@@H](Cc1ccccc1)C(=O)N[C@@H](CCCNC(=N)N)C(=O)c1nc2ccccc2n1C	TMPRSS2	enzyme activity, inhibitor	–	1 nM	activity vs control	89%
CC(C)CC(=O)OC[C@H]1O[C@@](C#N)(c2ccc3c(N)ncnn23)[C@H](O)[C@@H]1O	HTR1A (Homo sapiens, UniProt P08908)	cell-free assay	–	20 µM	inhibition	-6%
Cc1nn(C)cc1-c1nc2c(N3CCN(Cc4ccc(Cl)cc4)CC3)c(Cl)cnc2[nH]1	KIT (Homo sapiens, UniProt P10721, A829P)	binding, competition with immobilised ligand	–	1 µM	remaining binding	64%
Cc1nnc(N2C(=N)SC(=Cc3ccc(-c4ccc(OC(F)(F)F)cc4)o3)C2=O)s1	PFF0160c E182D	enzyme activity, inhibitor, absorbance	–	–	pIC50	6.58
Nc1ccncc1	KCNA1 (Homo sapiens, UniProt Q09470)	ion current, inhibitor, patch clamp	–	3 µM	inhibition	510%
O=C(CCCOc1ccc(Cl)cc1)NC1CCOC1=O (stereo not drawn)	qscR (Pseudomonas aeruginosa, UniProt G3XD77)	reporter gene, agonist	–	–	Emax	86 to 88%
COc1cccc2c1cc([N+](=O)[O-])c1c(C(=O)O)cc3c(c12)OCO3	CTSL	enzyme activity, inhibitor	–	100 µM	remaining activity	71.7%
COc1ncccc1-c1cnn2ccc(N3CCN(C(=O)OC(C)C)CC3)nc12	MYLK4 (Homo sapiens, UniProt Q86YV6)	binding, competition with immobilised ligand	–	1 µM	remaining binding	7.6%
CN1CCC[C@H]1c1cccnc1	DRD2 (Homo sapiens, UniProt P14416)	ligand displacement	–	50 µM	inhibition	3.23%
COC(=O)c1cc(-c2cccc(NC(=O)Nc3cccc(C(F)(F)F)c3)c2)on1	Mycobacteroides chelonae	microbial growth, broth dilution	ATCC35752	48 h	MIC	> 64 µg/mL
Nc1c2c(nc3c1C(c1ccc(Cl)c(Cl)c1)c1ccc(OCC(=O)c4ccccc4)cc1O3)CCCC2 (stereo not drawn)	SH-SY5Y	cell growth or viability, MTT	–	1.6 µM	viability	69.2%
C#Cc1n[nH]c2c(-c3cn(C(C)c4ccccn4)c(=O)[nH]c3=O)cc(F)cc12 (stereo not drawn)	RPS6KA1 (Homo sapiens, UniProt Q15418)	enzyme activity, inhibitor	–	1 µM	inhibition	8.5%
N=C(N)NCCC[C@@H](NC(=O)[C@H](CCC(N)=O)NC(=O)[C@H](Cc1cscn1)NC(=O)CCc1ccccc1)C(=O)c1nc2ccccc2s1	TMPRSS2	enzyme activity, inhibitor	–	1 nM	activity vs control	72%
[2H]c1c([2H])c([C@]2([2H])CCCN2C(=O)C(C)(C)Oc2ccc3cn[nH]c3c2)c([2H])c([2H])c1C([2H])([2H])[2H]	CLK3 (Homo sapiens, UniProt P49761)	binding, competition with immobilised ligand	–	1 µM	remaining binding	78%
N=C(N)NCCCCC(=O)N[C@@H](CCC(=O)O)C(=O)N[C@@H](Cc1ccccc1)C(=O)N[C@H](CCCNC(=N)N)C(=O)c1nc2ccccc2s1	TMPRSS2	enzyme activity, inhibitor	–	1 nM	activity vs control	31%
CCN(CC)CCCC[C@H](NC(=O)[C@H](CC(C)C)NC(=O)[C@H](C)NC(=O)[C@H](Cc1ccccc1)NC(=O)c1ccc(C(C)(C)C)cc1)C(=O)N[C@@H](CO)C(=O)OC	Bromodomain testis-specific protein, BD2 (BRDT, Homo sapiens, UniProt Q58F21)	thermal stability, DSF	–	25 µM	ΔTm	0.21 °C

Excerpt of the above:
SMILES	target or system	assay	system	conditions	measurement	result
Nc1ncc(-c2nc(N3CCOCC3)nc(N3CCOCC3)n2)c(C(F)F)n1	TAOK2 (Homo sapiens, UniProt Q9UL54)	binding, competition with immobilised ligand	–	10 µM	remaining binding	92%
CC(=O)N[C@@H](CCC(N)=O)C(=O)N[C@@H](Cc1ccccc1)C(=O)N[C@@H](CCCNC(=N)N)C(=O)c1nc2ccccc2n1C	TMPRSS2	enzyme activity, inhibitor	–	1 nM	activity vs control	89%
CC[C@H](C)CCCCC(=O)N[C@@H](CCN)C(=O)N[C@H](C(=O)N[C@@H](CCN)C(=O)N[C@H]1CCNC(=O)[C@H]([C@@H](C)O)NC(=O)[C@H](CCN)NC(=O)[C@H](CCN)NC(=O)[C@H](CC(C)C)NC(=O)[C@@H](CC(C)C)NC(=O)[C@H](CCN)NC1=O)[C@@H](C)O	–	–	male Sprague-Dawley rat, plasma	intravenous, 5 mg/kg	AUC(0-inf)	12500 ng·h/mL
